Published values of several laboratories.
Compare with care: the assays were run in different laboratories.
Organism: Staphylococcus aureus

Compound	test	system	conditions	MIC
COCO[C@H]1[C@H](O)[C@@H](N)[C@@H](O[C@H]2[C@H](O[C@@H]3O[C@H](CO)[C@@H](O[C@H]4O[C@@H](CN)[C@@H](O)[C@H](O)[C@H]4N)[C@H]3O)[C@@H](O)[C@H](N)C[C@@H]2N)O[C@@H]1CO	broth microdilution	MRSA isolate AG 044		16 to 32 µg/mL
CCCCOCCOCc1nc2ccccc2c(=O)n1N	broth microdilution	RN6390B		> 100 µM
CCCCCCCCCCN1C(=O)/C(=N\NC(=N)N)c2cc(C)ccc21	microbial growth, broth dilution		18 h	3 µg/mL
O=C(c1ccc[nH]1)c1ccccc1O	microbial growth, broth dilution	NCTC8325	20 h	> 64 µg/mL
Cc1cc(/C=C2\Sc3ccccc3N2CCCN2CCCC2)c2ccccc2[n+]1C	microbial growth, broth dilution	ATCC29213		32 µg/mL
Oc1c(Br)ccc2cccnc12	microbial growth, agar dilution	ATCC29213		35.7 µM
CNC(CC(C)C)C(=O)NC1C(=O)NC(CC(N)=O)C(=O)NC2C(=O)NC3C(=O)NC(C(=O)NC(C(=O)O)c4cc(O)cc(O)c4-c4cc3ccc4O)C(O)c3ccc(c(Cl)c3)Oc3cc2cc(c3OC2OC(CO)C(O)C(O)C2OC2CC(C)(NC(=O)CCCCCC[N+](C)(C)C)C(O)C(C)O2)Oc2ccc(cc2Cl)C1O (stereo not drawn)	agar dilution	MRSA clinical isolate MRSA4		64 µg/mL
COc1cc(Cc2cnc(N)nc2N)cc(/C=C/C(=O)N2N=Cc3ccccc3C2C=C(C)C)c1OC (stereo not drawn)	microbial growth, broth dilution	ATCC29213	pH 5.8	0.25 to 2 µg/mL
COCCNCc1cc(N(C)C)c2c(c1O)C(=O)C1=C(O)[C@]3(O)C(=O)C(C(N)=O)=C(O)[C@@H](N(C)C)[C@@H]3C[C@@H]1C2		RN4250, Tet K efflux		2 µg/mL
CSC1COC(=O)N1/N=C/c1ccc([N+](=O)[O-])o1 (stereo not drawn)	microbial growth, broth dilution	ATCC29213	18 h	25 µg/mL
C=C(NC(=O)C(=C)NC(=O)c1csc(C2=NC3c4csc(n4)C4NC(=O)c5csc(n5)C(C(C)(O)C(C)O)NC(=O)C5CSC(=N5)C(=CC)NC(=O)C(C(C)O)NC(=O)c5csc(n5)C3(CC2)NC(=O)C(C)NC(=O)C(=C)NC(=O)C(=CC)NC(=O)C(C(C)CC)NC2C=Cc3c(C(C)O)cc(nc3C2O)C(=O)OC4C)n1)C(N)=O (stereo not drawn)	broth microdilution	ATCC 10537 MRSA	18 h, 37 °C	0.11 µg/mL
COC1CCN(Cc2cc(N(C)C)c3c(c2O)C(=O)C2=C(O)[C@]4(O)C(=O)C(C(N)=O)=C(O)[C@@H](N(C)C)[C@@H]4C[C@@H]2C3)CC1	microbial growth, broth dilution			1 µg/mL
CC1C=CC=CC(C)C2C=CC3CC(C)(Cl)C(O)C(C)C3C2C(=O)C(Cl)(Cl)C(=O)C(C)C(=O)O1 (stereo not drawn)	microbial growth, broth dilution	NEWMAN		0.05 µg/mL
CC(C)CNCc1cc(N(C)C)c2c(c1O)C(=O)C1=C(O)[C@]3(O)C(=O)C(C(N)=O)=C(O)[C@@H](N(C)C)[C@@H]3C[C@@H]1C2		MRSA 5, Tet M ribosome protection		1 µg/mL
CCn1cc(/C=C/c2ccc3ccccc3[n+]2CC)c2ccccc21		1466		4 µg/mL

For quick reference, copied from above:
Compound	test	system	conditions	MIC
COc1cc(Cc2cnc(N)nc2N)cc(/C=C/C(=O)N2N=Cc3ccccc3C2C=C(C)C)c1OC (stereo not drawn)	microbial growth, broth dilution	ATCC29213	pH 5.8	0.25 to 2 µg/mL
CC1C=CC=CC(C)C2C=CC3CC(C)(Cl)C(O)C(C)C3C2C(=O)C(Cl)(Cl)C(=O)C(C)C(=O)O1 (stereo not drawn)	microbial growth, broth dilution	NEWMAN		0.05 µg/mL
